{"data": "Measured values gathered from unrelated publications", "note": "Compare with care: the assays were run in different laboratories. Values joined by “and” are separate records of one study, mostly repeats; a detail may differ. ± marks the error that the study gave."}
{"SMILES": "CC1(C)S[C@@H]2[C@H](NC(=O)[C@@H](C(=O)O)c3ccsc3)C(=O)N2[C@H]1C(=O)O", "test system": "rat plasma", "conditions": "30 ng/mL, three freeze-thaw cycles", "scale": "reference: nominal concentration", "measurement": "relative error", "result": "5%"}
{"SMILES": "CN[C@@](C)(C[18F])C(=O)O", "test system": "SCID mouse SK-OV-3 xenograft, pancreas", "conditions": "60 min, post injection", "measurement": "tissue uptake", "result": "21 ± 2.3 %ID/g"}
{"SMILES": "Oc1ccc2ccc3cccc4ccc1c2c34", "assay": "HPLC-fluorescence", "test system": "Wistar rat, male, stomach", "conditions": "oral, 4 mg/kg PY, 24 h", "measurement": "tissue concentration", "result": "871 ± 64 ng/g"}
{"SMILES": "CSCC[C@@H]1NC(=O)[C@H](CC(=O)O)NC(=O)CNC(=O)[C@H](CCCNC(=N)N)NC(=O)[C@H](C)NC(=O)[C@H](CCC(=O)O)NC(=O)[C@H](CCCNC(=N)N)NC(=O)[C@@H]2CSSC[C@@H]3NC(=O)[C@H](CO)NC(=O)[C@H]([C@@H](C)O)NC(=O)[C@@H]4CCCN4C(=O)[C@H](C)NC(=O)[C@H](Cc4c[nH]c5ccccc45)NC(=O)[C@H](CC(=O)O)NC(=O)CNC(=O)[C@H](CCCNC(=N)N)NC(=O)CNC(=O)[C@H](CCC(N)=O)NC(=O)[C@@H]4CCCN4C(=O)[C@@H](NC(=O)CNC(=O)C(C)F)CSSC[C@H](NC(=O)CNC(=O)[C@H](C)NC(=O)[C@H](CC(C)C)NC(=O)[C@H](CSSC[C@@H](C(=O)NCC(N)=O)NC(=O)[C@H]([C@@H](C)O)NC(=O)[C@H](CCCNC(=N)N)NC(=O)[C@@H]4CCCN4C1=O)NC(=O)[C@H](CC(=O)O)NC(=O)[C@H](CO)NC(=O)[C@H](CC(=O)O)NC(=O)[C@H](CCC(N)=O)NC(=O)[C@H](CO)NC3=O)C(=O)N[C@@H](C(C)C)C(=O)N2 (stereo partly drawn) [fluorine-18 labelled]", "test system": "nude mice U-87 MG xenograft, heart", "conditions": "intravenous, 1 h", "measurement": "tissue uptake", "result": "0.3 ± 0.06 %ID/g"}
{"SMILES": "CCCCCCCCCCCCCC(=O)NCC(=O)N[C@@H](Cc1ccc(O)cc1)C(=O)NCC(=O)N[C@@H](CCCNC(=N)N)C(=O)N[C@@H](CCCCN)C(=O)N[C@@H](CCCCN)C(=O)N[C@@H](CCCNC(=N)N)C(=O)N[C@@H](CCCNC(=N)N)C(=O)N[C@@H](CCC(N)=O)C(=O)N[C@@H](CCCNC(=N)N)C(=O)N[C@@H](CCCNC(=N)N)C(=O)N[C@@H](CCCNC(=N)N)C(=O)N[C@@H](C)C(=O)N[C@@H](CCCNC(=N)N)C(=O)N[C@@H](CO)C(=O)N[C@@H](CCCNC(=N)N)C(=O)N[C@@H](CC(C)C)C(=O)N[C@@H](C)C(=O)N[C@@H](CCC(=O)O)C(=O)N[C@@H](CC(C)C)C(=O)N[C@@H](CCCNC(=N)N)C(=O)NCC(=O)N[C@H](C(=O)N1CCC[C@H]1C(=O)N[C@@H](CCCNC(=N)N)C(=O)NCC(=O)N[C@@H](CC(C)C)C(=O)O)C(C)C", "assay": "conditioned place preference", "test system": "rat", "conditions": "intracerebroventricular, 10 µg in 5 µL, 5 pairings, test 24 h after last", "scale": "reference: total time", "measurement": "time in drug-paired chamber", "result": "46.5 ± 5.9%"}
{"SMILES": "C[C@@H]1COCCN1c1cc([C@]2(O)C[C@H]3CC[C@@H](C2)O3)c2cnn(-c3cc[nH]n3)c2n1", "test system": "NOD-SCID mouse, tumour-bearing", "conditions": "oral, 2 weeks, 3 days on, 4 off", "measurement": "MTD", "result": "30 mg/kg"}
{"SMILES": "O[C@H]1CCCN[C@@H]1CCCn1cnc2c(Cl)c(Cl)ccc21", "test system": "healthy human volunteers, plasma", "conditions": "oral, 50 mg, day 1, multiple ascending dose", "measurement": "Vz/F", "result": "902 L"}
{"SMILES": "CCCCCCCCCC[N+](C)(C)Cc1ccccc1", "assay": "ultrafiltration", "test system": "human serum", "measurement": "unbound fraction in blood", "result": 0.05}
{"SMILES": "CC[C@H](C)[C@H](NC(=O)[C@H](Cc1ccccc1)NC(=O)[C@H](CC(=O)O)NC(=O)[C@H](CCCNC(=N)N)NC(=O)[C@H](Cc1ccccc1)NC(=O)[C@H](Cc1ccccc1)NC(=O)[C@H](CCCCN)NC(=O)[C@H](CO)NC(=O)[C@H](CC(C)C)NC(=O)[C@H](CCCNC(=N)N)NC(=O)[C@H](CCSC)NC(=O)[C@@H](N)CCC(=O)O)C(=O)N[C@@H](CC(C)C)C(=O)N[C@@H](CCC(N)=O)C(=O)N[C@@H](CCCNC(=N)N)C(=O)N[C@@H](CCCCN)C(=O)N[C@@H](CCCCN)C(=O)O", "assay": "IVIS fluorescence imaging", "test system": "CD-1 mice", "conditions": "intravenous, 50 µg/mouse, Cy7.5-labelled peptide", "measurement": "time to full clearance", "result": "36 h"}
{"SMILES": "C#Cc1cccc2c1[nH]c1cnc(C(=O)OC(C)(C)C)cc12", "test system": "Wistar rat, brain", "conditions": "intraperitoneal, 10 mg/kg daily for 4 days, 20 min after last dose", "measurement": "brain concentration", "result": "89.9 ± 24.6 nM"}
{"SMILES": "CC(=O)N[C@H](CCCCNC(=O)C(C)F)C(=O)N[C@@H](CS)C(=O)N[C@@H](CS)C(=O)N[C@@H](CCC(=O)O)C(=O)N[C@@H](Cc1c[nH]cn1)C(=O)N[C@H](Cc1ccccc1)C(=O)N[C@@H](CCCNC(=N)N)C(=O)N[C@@H](Cc1c[nH]c2ccccc12)C(=O)N[C@@H](CS)C(=O)N[C@@H](CCCNC(=N)N)C(=O)N1CCC[C@H]1C(=O)N[C@H](C(N)=O)C(C)C (stereo partly drawn) [fluorine-18 labelled]", "test system": "C57BL/6 mice, male, B16-F10 tumour, blood", "conditions": "intravenous, 2 h", "measurement": "tissue uptake", "result": "0.42 ± 0.06 %ID/g"}
{"SMILES": "O=c1[nH]c(=O)[nH]c(=O)[nH]1", "assay": "LC-MS/MS", "test system": "pregnant female rat, serum", "conditions": "oral, 1000 mg/kg/day, 10 days", "measurement": "serum concentration", "result": "55.8 µg/mL and 80.5 µg/mL and 23 µg/mL and 314 µg/mL and 15.3 µg/mL"}
{"note": "Some of these lines once more:"}
{"SMILES": "C#Cc1cccc2c1[nH]c1cnc(C(=O)OC(C)(C)C)cc12", "test system": "Wistar rat, brain", "conditions": "intraperitoneal, 10 mg/kg daily for 4 days, 20 min after last dose", "measurement": "brain concentration", "result": "89.9 ± 24.6 nM"}
